Published values pooled from the literature.
Parts stem from different laboratories: compare values within a part only. Several values in a cell are separate wells, animals, samples, runs or records.

Series 1 — method: protein-binding microarray; form: double-stranded DNA, one strand shown; medium: in vitro; concentration: not given; direction: higher = stronger binding
Target: Max dimerization protein 1, bHLH-zipper, MAX partner unstated (MXD1, Homo sapiens, UniProt Q05195, residues 56-136)
Setting: k-mer, scored over probes, only values ≥0.25
Target sequence (chain): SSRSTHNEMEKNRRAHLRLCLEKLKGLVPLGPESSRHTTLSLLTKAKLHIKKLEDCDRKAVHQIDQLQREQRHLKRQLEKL
| Strand | E-score |
| --- | --- |
| AGGGGCAT | 0.27 |
| ATGTGCAC | 0.312 |
| CGCACCCC | 0.283 |
| AGCATGAT | 0.261 |
| CGTGCTTC | 0.293 |

Series 2 — cell line: HEK-293T/ACE2; concentration: concentration not given; time: 16 (unit not given); relative to: vehicle
| SMILES | viability [%] |
| --- | --- |
| CC(O)(P(=O)(O)O)P(=O)(O)O | 100 |
| CCc1nn(CCCN2CCN(c3cccc(Cl)c3)CC2)c(=O)n1CCOc1ccccc1 | 96.4 |
| CC(C)OC(=O)CCC/C=C\C[C@@H]1[C@@H](CC[C@@H](O)CCc2ccccc2)[C@H](O)C[C@@H]1O | 98.2 |
| CCCCCCCC(=O)N[C@H](CN1CCCC1)[C@H](O)c1ccc2c(c1)OCCO2 | 94.5 |

Series 3 — effect on: enzyme activity; mode: inhibitor; setting: without DTT
Target: Replicase polyprotein 1ab, main protease (rep, Severe acute respiratory syndrome coronavirus 2, UniProt P0DTD1)
| Compound | IC50 |
| --- | --- |
| C=CC(=O)c1ccc2ccccc2c1 | 1.2 µM |
| Cn1sc(=O)n(Cc2ccccc2)c1=O | 0.14 µM |
| C/N=c1/nc(-c2ccccc2)n(-c2ccccc2)s1 | 1 µM |
| O=[N+]([O-])C(Br)(CO)CO | 0.4 µM |

Series 4 — mode: inhibitor; concentration: 20 µM
Target: Replicase polyprotein 1ab, nsp13 helicase (rep, Severe acute respiratory syndrome coronavirus 2, UniProt P0DTD1)
| Compound | inhibition |
| --- | --- |
| CCOC(=O)[N-]c1c[n+](N2CCOCC2)no1 | -4.25% |
| CCCCCNCC(N)=O | 7.2% |
| CN1[C@@H]2CCC[C@H]1C[C@@H](NC(=O)c1nn(C)c3ccccc13)C2 | -15.2% |
| O=C(Nc1ccc(OC(F)(F)F)cc1)c1sccc1NCc1ccnc2ccccc12 | 6.98% |
| CCCCCCCCCC(=O)OC1(c2ccc(Cl)cc2)CCN(CCCC(=O)c2ccc(F)cc2)CC1 | 3.13% |
| Cc1ccc(=O)n(-c2ccccc2)c1 | 2.27% |
| NS(=O)(=O)C#Cc1ccccc1 | 1.59% |
| CC(C)NCC(O)COc1ccc(CC(N)=O)cc1 (stereo not drawn) | 2.19% and 8.45% |
| O=c1[nH]c(CCl)nc2sc3c(c12)CCCC3 | 14.6% |
| CC1(C)CCC(C)(C)c2cc(C#Cc3ccc(C(=O)O)cc3)ccc21 | 0.58% |
| CCCCCN(C)CCC(O)(P(=O)(O)O)P(=O)(O)O | 7.79% |
| C[C@]12CC[C@@H]3c4ccc(OC(=O)N(CCCl)CCCl)cc4CC[C@H]3[C@@H]1CC[C@@H]2OP(=O)(O)O | -4.64% |
| Nc1nc(Nc2ccccc2)nc2c1ncn2[C@@H]1O[C@H](CO)[C@@H](O)[C@H]1O | -3.53% |
| CCCC(=O)Nc1cccc(NC(=O)c2ccccc2Br)c1 | 3.59% |
| CN(c1nccc(=O)[nH]1)C1CCN(c2nc3ccccc3n2Cc2ccc(F)cc2)CC1 | 3.38% |
| O=C(O)COc1cccc(CN(Cc2ccc(-n3cccn3)cc2)S(=O)(=O)c2cccnc2)c1 | 5.86% |
| COc1cc2ncnc(Nc3ccc(Cl)cc3F)c2cc1OC | -4.43% |
| CC1Sc2c(C(=O)O)c(=O)c3cc(F)c(N4CCNCC4)cc3n21 (stereo not drawn) | 5.84% |
| CC(C)C(=O)OC[C@@]1(N=[N+]=[N-])O[C@@H](n2ccc(N)nc2=O)[C@H](OC(=O)C(C)C)[C@@H]1OC(=O)C(C)C | 6.9% |
| Nc1ncnc2c1c(-c1cnc3[nH]ccc3c1)nn2C1CCCC1 | 4.31% |
| C[C@]12C=CC(=O)C=C1CC[C@@H]1[C@@H]2[C@@H](O)C[C@@]2(C)[C@H]1CC[C@]2(O)C(=O)COC(=O)CCC(=O)O | 3.82% |
| CN(C/C=C/C#CC(C)(C)C)Cc1cccc2ccccc12 | 8.28% |
| CCOC(=O)Nc1ccc2c(c1)N(C(=O)CN(C)C)c1ccccc1CC2 | 2.28% |
| COc1cc2ncnc(Nc3cccc(Cl)c3)c2cc1OC | 4.34% |
| COc1ccc(Nc2ncnc3ccc(OC)cc23)cc1 | -0.92% |

Series 5 — method: universal PBM; form: double-stranded DNA, one strand shown; medium: in vitro; concentration: not given; direction: higher = stronger binding
Target: Sal-like protein 4, full length isoform B (SALL4, Homo sapiens, UniProt Q9UJQ4-2, residues 1-616)
Setting: 8-mer, flanks averaged, mean of replicates
| Strand | E-score |
| --- | --- |
| AGGATGGG | -0.258 |
| CGAGCAGC | -0.155 |
| GCCGCGAC | -0.332 |
| AGTCTTAT | 0.237 |
| AAACCGAT | -0.00736 |
| CTGAGCGC | -0.293 |
| ACTTTAAC | 0.166 |
| GGATCTAC | 0.0356 |

Series 6 — method: protein-binding microarray; form: double-stranded DNA, one strand shown; medium: in vitro; concentration: 250 nM; setting: 60-bp whole probe; with: salmon DNA 0.4 mg/ml; relative to: random background probes; direction: higher = stronger binding; shared flanks, not repeated: GCCTAGCAC … GTCTTGATTCGCTTGACGCTGCTG
Target: Interferon regulatory factor 7, full length, phosphomimetic (IRF7, Homo sapiens, UniProt Q92985, residues 1-503, S101K/S471D/S472D/S475D/S476D/S477D/S483D/S484D/S487D)
Sequence of UniProt Q92985 (whole entry, unmodified, looked up): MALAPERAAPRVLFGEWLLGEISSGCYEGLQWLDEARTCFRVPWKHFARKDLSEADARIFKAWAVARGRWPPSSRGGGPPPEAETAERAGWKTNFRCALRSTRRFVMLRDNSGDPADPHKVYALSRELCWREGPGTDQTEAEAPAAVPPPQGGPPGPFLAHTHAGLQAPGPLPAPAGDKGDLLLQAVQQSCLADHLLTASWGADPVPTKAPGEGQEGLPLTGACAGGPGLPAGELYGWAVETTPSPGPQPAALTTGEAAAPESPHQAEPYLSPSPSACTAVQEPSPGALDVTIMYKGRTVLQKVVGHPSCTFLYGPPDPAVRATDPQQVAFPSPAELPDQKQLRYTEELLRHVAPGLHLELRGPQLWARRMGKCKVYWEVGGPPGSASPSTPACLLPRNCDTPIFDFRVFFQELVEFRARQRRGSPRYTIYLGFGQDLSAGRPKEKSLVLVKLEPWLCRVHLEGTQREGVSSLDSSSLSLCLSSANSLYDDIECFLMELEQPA
| Strand | log fluorescence |
| --- | --- |
| GACTGTTTCGGACTGGGGACGTGCTAG | 1.4 z-score |
| GACGATATCAGTTTCGAAACGTGCTAG | 6.15 z-score |
| TAAGATTTCAGTTTCGATTAGTGCTAG | 9.79 z-score |
| GACGGTATCGCCTTTCGGGACGTGCTA | 0.385 z-score |
| AAGCCAGGACGAGCTCGCCTGTGCTAG | -0.736 z-score |
| GACGATATCAGTTTTGAGACGTGCTAG | 0.421 z-score |
| GACGAACTGGGTTTCGAGACGTGCTAG | 2.9 z-score |
| GACGAACTGACTATCGAGACGTGCTAG | -0.262 z-score |

Repeated from above (series 4):
| Compound | inhibition |
| --- | --- |
| NS(=O)(=O)C#Cc1ccccc1 | 1.59% |
| CC(C)NCC(O)COc1ccc(CC(N)=O)cc1 (stereo not drawn) | 2.19% and 8.45% |
| O=c1[nH]c(CCl)nc2sc3c(c12)CCCC3 | 14.6% |
